{"data": "Measurements collected from several papers", "note": "Every numbered part comes from another study and shows a few of its results, in no order."}
{"data": "Block 1", "target": "Histone acetyltransferase KAT6A, winged helix 1, GST fusion (KAT6A, Homo sapiens, UniProt Q92794, residues 1-85)", "method": "protein binding microarray", "molecule type": "double-stranded DNA, one strand shown", "medium": "in vitro", "concentration": "not given", "setting": "8-mer, flanks averaged, mean of 2 arrays, mostly near background", "baseline": "not given", "direction": "higher = stronger binding", "Target sequence (chain)": "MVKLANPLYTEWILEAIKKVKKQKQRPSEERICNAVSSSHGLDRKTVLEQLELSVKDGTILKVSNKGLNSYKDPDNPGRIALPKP"}
{"Sequence": "TATCCTAA", "E-score": -0.131}
{"Sequence": "AAAGTTAG", "E-score": -0.109}
{"Sequence": "TGAAAAAA", "E-score": -0.179}
{"Sequence": "GGGAAGTA", "E-score": -0.014}
{"Sequence": "ACTTAGTA", "E-score": -0.117}
{"data": "Block 2", "target": "Phosphate system positive regulatory protein PHO4, full length, GST-tagged (PHO4, Saccharomyces cerevisiae, UniProt P07270, residues 1-312)", "method": "competition protein-binding microarray", "molecule type": "double-stranded DNA, one strand shown", "medium": "in vitro", "concentration": "2 µM", "setting": "whole 60-bp probe, lowest competitor level", "added": "Cbf1 competitor, 0.05 µM", "direction": "higher = stronger binding", "Residues (chain)": "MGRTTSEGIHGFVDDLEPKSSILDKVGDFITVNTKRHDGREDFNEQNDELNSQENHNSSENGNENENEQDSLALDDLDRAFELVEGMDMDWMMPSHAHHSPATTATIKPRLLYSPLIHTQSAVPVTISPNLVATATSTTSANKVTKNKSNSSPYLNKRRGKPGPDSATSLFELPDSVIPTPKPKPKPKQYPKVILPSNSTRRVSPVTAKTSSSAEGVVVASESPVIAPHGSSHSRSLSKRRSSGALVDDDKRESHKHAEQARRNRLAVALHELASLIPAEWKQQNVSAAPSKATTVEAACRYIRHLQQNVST"}
{"Sequence": "AGAAACATAGTATGGAACGTGCAAAAGAGTCTGATTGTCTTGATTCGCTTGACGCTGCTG", "fluorescence intensity": "13100 a.u."}
{"Sequence": "TTATTCCCCAACAATCACGTTCCTTCTGCCAACATCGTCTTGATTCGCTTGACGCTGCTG", "fluorescence intensity": "11900 a.u."}
{"Sequence": "CTAACGAAGGTTTGGACGGTGGGTGACAAGCCAAGTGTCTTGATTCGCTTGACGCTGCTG", "fluorescence intensity": "3410 a.u."}
{"Sequence": "CATACCCAACCTTGCCTTGTGGGTGAAGATATTTGTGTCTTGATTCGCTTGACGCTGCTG", "fluorescence intensity": "6390 a.u."}
{"Sequence": "TCACTACGCACAAACCATGTGGATGCCCAATCTGTAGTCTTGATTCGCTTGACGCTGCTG", "fluorescence intensity": "10100 a.u."}
{"Sequence": "CATACCCAACCTTGGAGTGTGGGTGAAGATATTTGTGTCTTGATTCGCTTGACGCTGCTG", "fluorescence intensity": "6240 a.u."}
{"data": "Block 3", "target": "Prothrombin, mature alpha-thrombin (F2, Homo sapiens, UniProt P00734)", "method": "aptamer microarray, sandwich", "molecule type": "DNA with 2'F-ANA", "medium": "in vitro", "concentration": "200 nM", "setting": "whole 15-mer aptamer, many near background", "added": "Cy3 exosite-II aptamer, 400 nM", "direction": "higher = stronger binding", "sequence": "GGTTGGTGTGGTTGG"}
{"Modification": "2'F-ANA at 2 3 4 6 8 10 11 12", "mean fluorescence intensity [a.u.]": 254}
{"Modification": "2'F-ANA at 3 4 5 6 7 9 11 12", "mean fluorescence intensity [a.u.]": 158}
{"Modification": "2'F-ANA at 3 7 8 9 10", "mean fluorescence intensity [a.u.]": 630}
{"Modification": "2'F-ANA at 1 3 6 8 9 11", "mean fluorescence intensity [a.u.]": 277}
{"Modification": "2'F-ANA at 1 2 4 8 9 13 14", "mean fluorescence intensity [a.u.]": 50.8}
{"Modification": "2'F-ANA at 1 2 3 4 5 7 10 11 13 14", "mean fluorescence intensity [a.u.]": 44}
{"Modification": "2'F-ANA at 1 4 9 15", "mean fluorescence intensity [a.u.]": 134}
{"Modification": "2'F-ANA at 1 2 4 6 9 10 12 15", "mean fluorescence intensity [a.u.]": 56.9}
{"data": "Further values, each from its own experiment"}
{"Substance": "PhoQ, residues 284 288 289 292 302 303 TYGVAM", "target": "PhoP, residues 12 14 15 18 19 NYFRM (Escherichia coli, UniProt P23836)", "assay": "Sort-seq, refers to: YFP reporter", "test system": "E. coli", "conditions": "PhoQ-PhoP variant library, added: 10 µM Mg2+", "scale": "baseline: high Mg2+ state, higher = stronger signaling", "measurement": "fold induction", "value": 10.7}
{"note": "A few entries again (block 3):"}
{"Modification": "2'F-ANA at 3 4 5 6 7 9 11 12", "mean fluorescence intensity [a.u.]": 158}
{"Modification": "2'F-ANA at 3 7 8 9 10", "mean fluorescence intensity [a.u.]": 630}
